# Measurements gathered from unrelated publications.
# Every numbered part comes from another study and shows a few of its results, in no order. Changes are numbered by the printed parent chain.

# Study 1 — method: protein-binding microarray; form: double-stranded DNA, one strand shown; medium: in vitro; tested at: 0.8 µM; setting: whole 60-bp probe, no competitor; reading: higher = stronger binding; constant ends, left off below: … GTCTTGATTCGCTTGACGCTGCTG
# Target: Centromere-binding protein 1, full length, N-terminal tag (CBF1, Saccharomyces cerevisiae, UniProt P17106, residues 1-351)
# UniProt P17106, sequence (whole entry, looked up): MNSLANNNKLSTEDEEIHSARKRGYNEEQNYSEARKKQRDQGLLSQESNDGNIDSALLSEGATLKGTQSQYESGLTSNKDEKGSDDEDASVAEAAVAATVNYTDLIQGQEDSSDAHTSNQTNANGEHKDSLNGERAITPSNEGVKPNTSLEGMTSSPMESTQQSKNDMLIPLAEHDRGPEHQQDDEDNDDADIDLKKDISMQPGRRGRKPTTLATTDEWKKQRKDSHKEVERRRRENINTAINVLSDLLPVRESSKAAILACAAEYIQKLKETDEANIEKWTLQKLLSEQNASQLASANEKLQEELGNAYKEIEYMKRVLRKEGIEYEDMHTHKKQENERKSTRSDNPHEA
Strand,fluorescence intensity
GAATTTTGGCAGCATGATGCAACCACATTGCACTAG,569 a.u.
GAAGTTCGAAAATAGCACGTGCCTATTGATCTTTAG,12700 a.u.
GAAAGCTGTTACAAACACATCACGGGCCACCGGTAG,1150 a.u.
CTATTCCAAGTACCTGATGTGTGCTTGCGAGTATTC,521 a.u.
GAAAACAGATACAGACATCACACGCCATAGAGGTAG,572 a.u.
CTAGCAATTTCCCATAGTCTCATGAAAATTCCTTTC,532 a.u.
CTAATAACTTTATGTGTCACGTTCCTCAGGATTTTC,2550 a.u.
CTAGTGCAGGTGACGCACGAACTTCTTAGAATGTTC,1100 a.u.
CTACAGATGAAGTGCCAGGTGGCGTACCAGGACTTC,500 a.u.
CCTAACTACTATAATGACACGATATAGCTTCGTACA,553 a.u.
GAACGAAAGCAAACAATCGTGATATCTCTTGTATAG,537 a.u.
CTATTTTTTAAATCTCACGTTATTTTTCATTTATTC,655 a.u.
GAATATTTTTAAATACGCATGACCATCCGCGAATAG,932 a.u.
CTATCATCGTATATTTCCGTGATTGCTCCTTTCTTC,541 a.u.
CTACCATACCATCATCATCACTTTACACATACTTTC,570 a.u.
GAAGTTACAAAATTACACGTGACTTTTCTGGTCTAG,12400 a.u.
GAATAGTAGACTTTTCACGTCATTGTTAGAAGTTAG,520 a.u.
CTATATTTATTTATACGTGTGATTTCGTCTTGCTTC,559 a.u.
TGTACGAAGCTATGTGTCACCATTATAGTAGTTAGG,516 a.u.

# Study 2 — method: protein binding microarray; form: double-stranded DNA, one strand shown; medium: in vitro; tested at: not given; baseline: not given; reading: higher = stronger binding
# Target: Histone acetyltransferase KAT6A, both winged helices, GST fusion (KAT6A, Homo sapiens, UniProt Q92794, residues 1-181)
# Setting: 8-mer, flanks averaged, mean of 2 arrays, mostly near background
# Construct (chain): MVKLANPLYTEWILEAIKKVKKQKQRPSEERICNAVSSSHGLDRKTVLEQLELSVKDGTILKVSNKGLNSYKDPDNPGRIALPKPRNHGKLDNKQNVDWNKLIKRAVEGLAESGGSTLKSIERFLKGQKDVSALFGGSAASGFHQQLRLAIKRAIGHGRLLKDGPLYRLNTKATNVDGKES
Strand,E-score
AGGATGGA,-0.11
ATTATCGA,-0.106
AGATATCG,-0.0446
TCCTGTAA,-0.0962
AGTTCTGG,-0.169
AATTGCAA,0.000835
ACATGGGT,-0.0208
GTCATGTA,-0.00101
GCCCGACA,0.131
CGTCATAA,0.00645
GTAACCAC,-0.0337
ATGGAGGA,-0.114
CAAAGCGG,0.266
CGAGTTTC,0.0182
TCGGTCCA,-0.1
AGAATCCG,0.0144
CTTTTTTA,-0.0905
CCGACGGC,0.398
CGTCACAG,0.129
ACCTTCTA,-0.152
ACTTTCAG,-0.0978
ATCGGGTC,0.15
CGGCACTA,0.22
TAACTAAA,-0.0638
GTAAGGTA,-0.135

# Study 3 — target: CCNA1, cyclin fold, Cln2 fusion (human); method: yeast growth competition, sequencing; medium: yeast; setting: weak parent motif; baseline: not given; reading: higher = stronger binding
# Starting sequence: E2F1 docking peptide (human); PPVKRRLDLETDH
Change,normalised enrichment score
T11C,0.386
P1A,0.552
P2E,0.485
L7F,0.134
V3L,-0.0175
K4I,0.204
R5K,0.398
V3Y,0.506
K4M,0.521
L7D,0.187
K4Y,0.582
T11Y,0.827
H13R,0.22
L7I,0.454
R6T,0.556
P2H,0.531
D12N,0.325
L7R,0.246

# Further values, each from its own experiment
Molecule,target,test,system,setting,how to read,endpoint,value
"PhoQ, residues 284 288 289 292 302 303 SSTMSV","PhoP, residues 12 14 15 18 19 AWHSL (Escherichia coli, UniProt P23836)","Sort-seq, refers to: YFP reporter",E. coli,"PhoQ-PhoP variant library, with: 10 µM Mg2+","baseline: high Mg2+ state, higher = stronger signaling",fold induction,1.77

# Repeated from above (study 2):
Strand,E-score
CGTCACAG,0.129
ACCTTCTA,-0.152
ACTTTCAG,-0.0978
ATCGGGTC,0.15
CGGCACTA,0.22
